# Measured values pooled from the literature.
# Every numbered part comes from another study and shows a few of its results, in no order. Changes are numbered by the printed parent chain.

# Set 1
# Target: CCNB1, cyclin fold, Cln2 fusion (human)
# Method: yeast growth competition, sequencing
# Sample: yeast
# Notes: weak parent motif
# Reference: not given
# Reading: higher = stronger binding
# Parent: SAMHD1 docking peptide (human); ASKSRVQLFKDDP
Variant,normalised enrichment score
ASKSRVQLFWDDP [K10W],0.0781
ASKSRVQLKKDDP [F9K],0.168
ASKSRVQLFKLDP [D11L],0.0319
ASKSRIQLFKDDP [V6I],-0.248
ASKSRVQLFKDKP [D12K],0.46
ASKSHVQLFKDDP [R5H],0.12
ASKSGVQLFKDDP [R5G],0.0303
ACKSRVQLFKDDP [S2C],0.399
ASKSRVQLFGDDP [K10G],0.0664
ASKSRVQLFKDCP [D12C],0.355
ASKSRVQLFLDDP [K10L],0.469
ASKSRWQLFKDDP [V6W],-0.387
ATKSRVQLFKDDP [S2T],0.412
ASISRVQLFKDDP [K3I],0.144
ASKSRVQLFKMDP [D11M],0.142
ASKSRVHLFKDDP [Q7H],0.329
ASKSRVQLAKDDP [F9A],0.261
ASKSRVQLFIDDP [K10I],0.789
ASQSRVQLFKDDP [K3Q],-0.0906
ASPSRVQLFKDDP [K3P],0.0885
ASKSRVQLFKDTP [D12T],-0.0331
ASKSQVQLFKDDP [R5Q],0.148
ASKSRVQLFKDHP [D12H],0.0134
ASKSRVQLVKDDP [F9V],0.703

# Set 2
# Target: Interferon regulatory factor 3, full length, phosphomimetic (IRF3, Homo sapiens, UniProt Q14653, residues 1-427, S386D/S396D/S398D/S402D/T404D/S405D)
# Method: protein-binding microarray
# Molecule type: double-stranded DNA, one strand shown
# Sample: in vitro
# Concentration: 2540 nM top
# Notes: 60-bp whole probe
# Added: salmon DNA 0.4 mg/ml
# Reference: random background probes
# Reading: higher = stronger binding
# Constant ends, left off below: GCCTAGCAC … GTCTTGATTCGCTTGACGCTGCTG
# Target sequence (chain): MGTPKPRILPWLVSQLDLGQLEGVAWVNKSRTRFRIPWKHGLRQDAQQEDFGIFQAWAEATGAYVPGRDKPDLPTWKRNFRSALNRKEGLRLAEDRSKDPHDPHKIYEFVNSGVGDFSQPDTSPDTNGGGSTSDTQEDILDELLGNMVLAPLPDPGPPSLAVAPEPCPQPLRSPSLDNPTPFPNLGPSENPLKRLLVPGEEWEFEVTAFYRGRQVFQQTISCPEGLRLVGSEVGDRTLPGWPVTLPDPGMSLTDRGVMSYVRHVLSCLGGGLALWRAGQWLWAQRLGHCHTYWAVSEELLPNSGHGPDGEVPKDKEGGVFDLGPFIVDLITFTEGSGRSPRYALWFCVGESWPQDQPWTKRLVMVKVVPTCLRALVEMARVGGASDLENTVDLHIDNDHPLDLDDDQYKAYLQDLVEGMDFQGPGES
Strand,fitted relative affinity [z-score]
GTAGGACTGGGGTTTCGGTTAGTGCTA,2.26
CTGACTTTGGAGATGACTCAGTGCTAG,-0.232
TTAGGAGTGGACTTTCGGTTAGTGCTA,1.2
TCAGATATTAAACTGATACTGTGCTAG,0.416
ACTTTTTTTAATTGAGAAGCGTGCTAG,1.27
GAAGGTCTCGGTCTCGGGACGTGCTAG,0.648
AAATCATTTTCTCTGTTCTAGTGCTAG,2.16
TTAGGTCTGCTTCTCCTTTAGTGCTAG,0.0121
GACGGTTTCGGGTATCGTGACGTGCTA,4.01
CTTCTTTTTTTTCTTTAAAAGTGCTAG,3.66
AATTTTTTGTATTTTTAGTGGTGCTAG,0.684
GACGGTTTCCTTATTCTGACGTGCTAG,7.28
TCAATTTTGTTCATCATACTGTGCTAG,0.543
TTAGATCCCAGTTTCGATTAGTGCTAG,3.26
GACGGTTTCGGTTTCGCGACGTGCTAG,9.86
TTGTTTTACAATTTGCTTTAGTGCTAG,1.56
GGTAGGCGGGGCCCCTGGCCGTGCTAG,-1.17

# Set 3
# Target: Histone acetyltransferase KAT6A, winged helix 2, GST fusion (KAT6A, Homo sapiens, UniProt Q92794, residues 85-181)
# Method: protein binding microarray
# Molecule type: double-stranded DNA, one strand shown
# Sample: in vitro
# Concentration: not given
# Notes: 8-mer, flanks averaged, mean of 2 arrays, mostly near background
# Reference: not given
# Reading: higher = stronger binding
# Construct (chain): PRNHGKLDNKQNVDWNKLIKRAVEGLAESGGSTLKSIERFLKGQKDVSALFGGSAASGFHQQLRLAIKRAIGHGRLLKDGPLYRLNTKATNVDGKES
Strand,E-score
CGTTCTAC,0.0127
ATTAATGG,0.0544
ACACATGC,-0.151
CTTGCATA,-0.0274
ACCAATAT,-0.0209
AAACTTTG,0.0778
CATCCCAC,-0.0457
CCGGGCTC,0.141
CGTCCCAC,0.00549
CCGCATCG,0.27
CACTGAAC,0.00739
CATGGGTC,-0.24
AGTGGGTC,0.105
TAAGGAAA,-0.0723
GTCGTCGA,-0.107
TACTCTCA,-0.00906
CAAGCCAG,0.098
AAGCCTGA,0.0158

# Set 4
# Target: NFIL3, bZIP domain (human)
# Method: DHFR protein complementation
# Sample: yeast
# Notes: single substitutions, most at no-binding floor
# Reference: wild-type JUN-FOS pair
# Reading: higher = stronger binding
# Parent: JUN, bZIP domain (human); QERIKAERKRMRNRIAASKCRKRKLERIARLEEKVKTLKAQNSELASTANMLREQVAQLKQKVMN; partner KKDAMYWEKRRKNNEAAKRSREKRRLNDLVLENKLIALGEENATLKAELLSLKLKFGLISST
Variant,binding fitness
E32L,-1.42 natural log
K36L,-1.46 natural log
S43A,-1.45 natural log
I28Q,-1.33 natural log
A46E,-1.56 natural log
N42M,-1.52 natural log
L59T,-1.49 natural log
S43C,-1.52 natural log
Q55R,-1.51 natural log
E33K,-1.52 natural log
T48F,-1.5 natural log
L59H,-1.47 natural log
E32V,-1.34 natural log
S43H,-1.47 natural log
R30H,-1.5 natural log
R30C,-1.38 natural log

# Set 5
# Target: ABI1, truncated, D143A, DHFR fusion (Arabidopsis thaliana)
# Method: DHFR PCA, deep sequencing
# Sample: yeast
# Notes: methotrexate growth selection, single substitutions
# Added: (+)-ABA 710 µM
# Reference: wild-type fitted maximum
# Reading: higher = stronger binding
# Parent: PYL1, truncated, DHFR fusion (Arabidopsis thaliana); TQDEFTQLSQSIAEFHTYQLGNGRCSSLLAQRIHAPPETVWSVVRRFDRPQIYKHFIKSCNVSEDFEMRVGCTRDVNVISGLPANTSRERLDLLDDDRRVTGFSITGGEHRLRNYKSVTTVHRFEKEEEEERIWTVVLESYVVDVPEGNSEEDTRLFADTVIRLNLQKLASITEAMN
Variant,relative binding score [%]
R155Y,70.7
E38Q,94.7
L164A,101
M176T,101
G108R,45.2
V143C,102
N177Q,92.8
L29M,93.5
L166E,-18.1
V62C,92.3
Y53K,21.2
V78N,63.9
T1C,100
E38H,90.5
F124V,105

# Set 6
# Target: Ras GTPase-activating protein-binding protein 1, full length (G3BP1, Homo sapiens, UniProt Q13283)
# Sequence of UniProt Q13283 (whole entry, looked up): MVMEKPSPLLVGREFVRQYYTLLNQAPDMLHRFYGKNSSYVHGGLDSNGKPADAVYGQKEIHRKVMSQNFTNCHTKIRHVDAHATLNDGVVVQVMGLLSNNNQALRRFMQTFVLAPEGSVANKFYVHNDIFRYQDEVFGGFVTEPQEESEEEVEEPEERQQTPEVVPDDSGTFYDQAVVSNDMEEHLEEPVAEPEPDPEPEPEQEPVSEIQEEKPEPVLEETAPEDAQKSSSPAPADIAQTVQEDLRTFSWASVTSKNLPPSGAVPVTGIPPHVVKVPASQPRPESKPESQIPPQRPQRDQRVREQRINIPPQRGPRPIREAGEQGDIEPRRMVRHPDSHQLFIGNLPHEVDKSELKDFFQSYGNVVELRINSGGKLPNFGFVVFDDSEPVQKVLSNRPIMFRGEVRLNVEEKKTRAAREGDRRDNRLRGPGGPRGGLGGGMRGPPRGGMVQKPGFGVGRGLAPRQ
# Method: RNA Bind-n-Seq
# Molecule type: RNA
# Sample: in vitro
# Concentration: 200 nM
# Notes: whole 134-nt RNA, ends assumed
# Added: 150 mM KCl
# Reference: input library
# Reading: higher = stronger binding
Strand,log2 enrichment
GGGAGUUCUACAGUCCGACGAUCCUCAAGUCCUGUGCUACACAUCGUAUGUACCGAAUCGGGUGGGAGGGUUUGGGAAAGUAUUAUGUUACGCCGUUCGGAUCUGCACUUCCAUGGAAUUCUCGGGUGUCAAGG,1.1
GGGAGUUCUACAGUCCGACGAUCUCCUGUGCUACACAUCGUAUGUACCGAAUCGGGGAAAAAGGGGUUUGGGGAAAAAGGGGAAAGUAUUAUGUUACGCCGUUCGGAUCUGCAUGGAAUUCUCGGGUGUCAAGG,0.62
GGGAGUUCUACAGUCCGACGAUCUCCUGUGCUACACAUCGUAUGUACCGAAUCAAACCCCCCCAAAUUUAAACCCCCCCAAAAAAGUAUUAUGUUACGCCGUUCGGAUCUGCAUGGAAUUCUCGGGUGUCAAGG,1.37
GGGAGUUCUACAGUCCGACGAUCUACUCUCUCGGGGCUGGAAGCUUCCUGACUGAAGAUCUCUCUGCACUUGGGGUUCUUUCUAGAACAUUUUCUAGUCCCCCAACACCCUUUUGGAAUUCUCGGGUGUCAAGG,1.18
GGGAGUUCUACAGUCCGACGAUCUAACUUUAGAGGAGGAUCUGAUGGAUAUGGCAGUGGACGUGGAUUUGGGGAUGGCUCUAAUGGGUAUGGAGGAGGACCUGGAGGUGGCAAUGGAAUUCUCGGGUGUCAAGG,0.299
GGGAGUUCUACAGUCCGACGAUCCCUCAAGUCCUGUGCUACACAUCGUAUGUACCGAAUCGGUUUGGAGGUUUGGAAAGUAUUAUGUUACGCCGUUCGGAUCUGCACUUCCAGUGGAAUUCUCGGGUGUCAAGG,-0.25
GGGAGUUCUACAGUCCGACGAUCCCUCAAGUCCUGUGCUACACAUCGUAUGUACCGAAUCGGAGGAGGGGAGGGGAAAGUAUUAUGUUACGCCGUUCGGAUCUGCACUUCCAGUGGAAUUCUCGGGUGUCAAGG,0.489
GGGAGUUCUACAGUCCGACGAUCCCUGUGCUACACAUCGUAUGUACCGAAUCGGGGAAAGGGGUUUUUGGGGUUUUUUUGGGGAAAGUAUUAUGUUACGCCGUUCGGAUCUGCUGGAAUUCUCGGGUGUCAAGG,0.19
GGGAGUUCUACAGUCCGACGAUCGCAGGAAGUAAAAACAAAUGGAAAUGCUUCGGAUAGUGGCAGGGGUGGGGGUUGCUAAGGAAGGGGUGGGAUGGGAGUGGGUAAAGAGUUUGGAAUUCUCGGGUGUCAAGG,0.736
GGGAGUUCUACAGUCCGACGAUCGCAGGAAGUAAAAACAAAUGGAAAUGCUUCGGAUAGUGGCAGGGGUGGGGGUUGCUAAGGAAAGGGUGGGAUGGGAGUGGGUAAAGAGUAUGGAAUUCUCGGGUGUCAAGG,0.934
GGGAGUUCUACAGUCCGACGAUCUAAUUAUGUUUUAUUUUCUUUAAUUGCAGGACUUCAUAGACCUCACGUUGUCGAAGACUCAACGAAAGACUCCAACCGUUAUUCAUAAACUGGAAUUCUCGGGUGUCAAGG,0.0671
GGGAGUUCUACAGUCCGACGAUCCAAGUCCUGUGCUACACAUCGUAUGUACCGAAUCGGUUUUUUUGGUUUUUGGAGGAAAGUAUUAUGUUACGCCGUUCGGAUCUGCACUUCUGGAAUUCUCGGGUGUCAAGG,-0.793
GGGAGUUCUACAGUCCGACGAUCCAAGUCCUGUGCUACACAUCGUAUGUACCGAAUCGGGAAAGGGUUUUUGGGAGGGAAAGUAUUAUGUUACGCCGUUCGGAUCUGCACUUCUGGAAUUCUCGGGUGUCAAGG,0.549
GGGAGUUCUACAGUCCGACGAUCCCAUAGACCCCUUUCUUCUCCCCUUCCCCACGGUAGGAACAUAGCGUGUUUAUAUUUUAUGGCCAAACUAUUUUGAAUUUUGUUGUCCGGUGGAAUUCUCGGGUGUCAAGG,-0.0825

# Further values, each from its own experiment
Substance,target,assay,system,conditions,scale,measurement,value
"PhoQ, residues 284 288 289 292 302 303 ALVSVA","PhoP, residues 12 14 15 18 19 LHATL (Escherichia coli, UniProt P23836)","Sort-seq, refers to: YFP reporter",E. coli,"PhoQ-PhoP variant library, added: 10 µM Mg2+","reference: high Mg2+ state, higher = stronger signaling",fold induction,4.59
